Measured values from different studies.
Several values in a cell are separate wells, animals, samples, runs or records. Numbers after ± are the reported error.
PDGFRB: Platelet-derived growth factor receptor beta (PDGFRB, Homo sapiens, UniProt P09619)
MET: Hepatocyte growth factor receptor (MET, Homo sapiens, UniProt P08581)
MAL12: Alpha-glucosidase MAL12 (MAL12, Saccharomyces cerevisiae S288c, UniProt P53341)
HDAC10: Polyamine deacetylase HDAC10 (HDAC10, Homo sapiens, UniProt Q969S8)
CTSL: Procathepsin L (CTSL, Homo sapiens, UniProt P07711)
KDR: Vascular endothelial growth factor receptor 2 (KDR, Homo sapiens, UniProt P35968)
Integrin alpha-V/beta-3: Integrin alpha-V/beta-3 (Homo sapiens, UniProt P05106+P06756)

Structure (SMILES) | target | assay | test system | conditions | IC50
COc1cc2nccc(Oc3ccc(NC(=S)N4CC(F)(F)C4)c(Cl)c3)c2cc1C(N)=O | PDGFRB |  |  |  | 0.184 µM
COc1ccc(-c2c[nH]c3ccnc(Nc4ccc(Oc5ncnc6cc(OC)c(OC)cc56)c(F)c4)c3c2=O)cc1 | MET | kinase activity, inhibitor, HTRF |  |  | 0.603 µM
O=C(N/N=C/c1cccc(O)c1)c1ccc(C(=O)N/N=C/c2cccc(O)c2)cc1 | Urease (Canavalia ensiformis, UniProt P07374) | enzyme activity, inhibitor |  |  | 63.1 µM
OCc1ccccc1S[C@@H]1O[C@H](CO)[C@H](O)[C@H](O)[C@H]1O | SLC5A1 (Homo sapiens, UniProt P13866) | transporter uptake, inhibitor, radiometric |  |  | 15 µM
CC(C)C[C@@H]1NC(=O)[C@H]([C@@H](C)O)NC(=O)[C@H](Cc2ccccc2)NC(=O)CNC(=O)[C@H](Cc2c[nH]c3ccccc23)NC(=O)[C@H](Cc2c[nH]cn2)NC(=O)[C@H](C)NC(=O)[C@H]([C@@H](C)O)NC(=O)[C@H](C)NC(=O)C[C@@H](C(N)=O)NC1=O | MMP2 (Homo sapiens, UniProt P08253) | inhibitor |  | 1 h preincubation, 37 °C, added: APMA-activated enzyme | 9.28 µM
CC(C)CCn1c(OC2CCN(C(=O)C3CC3)CC2)nc2c1c(=O)n(C)c(=O)n2C | HSD17B4 (Homo sapiens, UniProt P51659) |  |  |  | > 57 µM
NC1CCC(Nc2nccc(-c3cccnc3Oc3ccc(NS(=O)(=O)c4ccccc4Cl)c(F)c3)n2)CC1 (centres unmarked) | Serine/threonine-protein kinase/endoribonuclease IRE1, RNase domain (ERN1, Homo sapiens, UniProt O75460) | RNase activity, inhibitor |  | added: XBP1 mini-substrate | 0.022 ± 0.009 µM
O=C(CN1CCOc2ccccc2C1)c1ccc2[nH]c(=O)[nH]c2c1 | DNA dC->dU-editing enzyme APOBEC-3A (Homo sapiens, UniProt P31941) | enzyme activity, inhibitor |  | pH 5.5 | 290 µM
Oc1cc2c(cc1O)C(c1ccccc1)CNCC2 (racemic) | Carbamate kinase (Giardia intestinalis, UniProt A8BB85) | enzyme activity, inhibitor, coupled absorbance |  |  | 1.79 µM
CC(C)CCC[C@@H](C)[C@H]1CCC([C@@H]2CC[C@H]3C[C@@H](O)CC[C@]3(C)[C@@H]2O)[C@]1(C)CC(=O)O (some centres unmarked) | Bile acid receptor (NR1H4, Homo sapiens, UniProt Q96RI1) | transactivation, antagonist, SHP promoter luciferase reporter | HEK293T | added: GW4064 10 µM | 1.6 µM
COc1cc2nccc(Oc3ccc(NC(=S)N[C@@H](C)CO)c(Cl)c3)c2cc1C(N)=O | PDGFRB |  |  |  | 0.0891 µM
O=C1CC(c2ccc(OC3OC(CO)C(O)C(O)C3O)cc2)Oc2cc(O)cc(O)c21 (centres unmarked) | MAL12 | enzyme activity, inhibitor, absorbance |  |  | > 100 µM
C1=[N+]2CCCC[N+]3=Cc4ccc5[n]4[Au-]23[n]2c1ccc2-c1nc2ccccc2nc1-5.F[P-](F)(F)(F)(F)F | DNA topoisomerase 1 (TOP1, Homo sapiens, UniProt P11387) | DNA relaxation, inhibitor |  | added: supercoiled DNA | 0.049 µM
O=c1c2ccccc2sn1Cc1ccccc1 | HDAC10 | enzyme activity, inhibitor |  |  | > 10 µM
CCOC(=O)N1CCC(Oc2nc3c(c(=O)n(C)c(=O)n3C)n2CCC(C)C)CC1 | ALDH1A1 (Homo sapiens, UniProt P00352) |  |  |  | 0.138 ± 0.018 µM
COc1ccc(Nc2nc(N)c(C(=O)c3ccc(OC)cc3)s2)cc1 | GSK3 (Trypanosoma brucei, UniProt Q388M1) | enzyme activity, inhibitor, radiometric |  |  | 0.1 µM and < 0.1 µM
CC(C)CCN(Cc1ccccc1)c1nc(C#N)nc(N2CCOCC2)n1 | CTSL | enzyme activity, inhibitor, fluorescence |  |  | 0.062 µM
Cc1ccc2oc(-c3c4c(N)n[nH]c(=O)c4nn3-c3ccc(NC(=O)/C=C/CN(C)C)cc3)c(C)c2c1 | MET | enzyme activity, inhibitor, ELISA |  |  | > 1 µM
N#Cc1nc(N2CCOCC2)nc(N(Cc2ccc(F)cc2)CC2CCCOC2)n1 (centres unmarked) | CTSL | enzyme activity, inhibitor, fluorescence |  |  | 0.17 µM
Cn1c(=O)n(CCCO)c(=O)c2c1nc(Oc1cccc(OC(F)(F)F)c1)n2Cc1ccc(C2(C(F)(F)F)N=N2)cc1 | TRPC4 (Homo sapiens, UniProt Q9UBN4) | calcium signal, inhibitor, fluorescence |  |  | 0.016 µM
Cn1cc2c(n1)CN(C(=O)Nc1nc(-c3ccc(F)cc3)ccc1N)C2 | HDAC10 | deacetylase activity, inhibitor, recombinant enzyme |  |  | > 30 µM
CCOC(=O)c1cc2cc3cc(Br)ccc3nc2s1 | PTPN11 (Homo sapiens, UniProt Q06124) | enzyme activity, inhibitor, fluorescence |  |  | 7.84 µM
COc1cc2nccc(Oc3ccc(NC(=S)NCCC#N)c(Cl)c3)c2cc1C(N)=O | KDR |  |  |  | 0.208 µM
OC[C@H]1[C@@H](O)[C@@H](O)CN1Cc1ccc(Br)cc1 | Lysosomal alpha-mannosidase (Drosophila melanogaster, UniProt Q9VKV1) |  |  | pH 5.2, added: 2 mM pNP-Man | 7500 µM
O=C(Nc1ccc(-c2nnc(-c3ccco3)o2)cc1)c1ccco1 | Nucleoside transporter 1 (Plasmodium vivax, UniProt A5K8B0) | yeast growth | purine auxotrophic yeast expressing target | 15 to 17 h, added: adenosine 1 mM | 1.17 ± 0.188 µM
COc1cc2nccc(Oc3ccc(NC(=S)NCCc4ccccc4)c(Cl)c3)c2cc1C(N)=O | PDGFRB |  |  |  | 0.186 µM
CCCCOC(=O)NS(=O)(=O)c1sc(CC(C)C)cc1-c1ccc(F)c(Cn2ccnc2)c1 | AGTR2 (Homo sapiens, UniProt P50052) | ligand displacement in cells |  |  | 0.217 µM

Structure (SMILES) | target | assay | test system | conditions | IC50
OC(c1ccccc1)(c1cccs1)c1cccs1 | KCNN4 (Homo sapiens, UniProt O15554) | ion current, inhibitor, patch clamp |  |  | 9 µM
O=C(N1CCCC1)n1cc(-c2ccc(-c3ccccc3)cc2)nn1 | Platelet-activating factor acetylhydrolase (Mus musculus, UniProt Q60963) | enzyme activity, inhibitor |  |  | 0.1 µM
Cn1c(=O)c(=O)n(C)c2cc(S(=O)(=O)Nc3ccc(S(=O)(=O)Nc4ncccn4)cc3)ccc21 | Dipeptidyl peptidase 8 (Homo sapiens, UniProt Q6V1X1) | enzyme activity, inhibitor, fluorescence |  |  | > 100 µM
C=CCc1ccc(O)c(-c2cc(CC=C)ccc2OCCCCCCCCCC[P+](c2ccccc2)(c2ccccc2)c2ccccc2)c1 | mitochondrial complex I | complex I-dependent oxygen consumption rate, inhibitor | G-361 | 24 h | 0.19 µM
O=C1C2=C(Nc3ccccc3SC2C2CCCCC2)c2ccccc21 (racemic) | Cytochrome b (MT-CYB, Homo sapiens, UniProt P00156) | enzyme activity, inhibitor |  |  | > 5 µM
CC(C)C[C@@H](CN[C@@H](Cc1ccc(Cl)cc1)C(N)=O)NC(=O)[C@H](Cc1c[nH]cn1)NC(=O)CNC(=O)[C@@H](NC(=O)[C@H](C)NC(=O)[C@H](Cc1c[nH]c2ccccc12)NC(=O)[C@H](CCC(N)=O)NC(=O)[C@H](N)Cc1ccccc1)C(C)C | NMBR (Homo sapiens, UniProt P28336) | inositol phosphate generation, antagonist | NCI-H1299 | added: neuromedin B | > 10 µM
CCC(c1nnnn1Cc1cccs1)N1CCC(c2nc3cc(N)cc(F)c3s2)CC1 (centres unmarked) | Deoxyribonuclease-1 (DNASE1, Bos taurus, UniProt P00639) | enzyme activity, inhibitor, fluorescence DNA degradation |  | pH 7.5, added: FITC-labelled DNA substrate | 77 µM
O=C(O)/C=C\C(=O)NNC(=O)c1nccc2ccccc12 | Egl nine homolog 1 (EGLN1, Homo sapiens, UniProt Q9GZT9) | inhibitor, AlphaScreen |  | bimodal curve, rough estimate, added: 2 µM 2-oxoglutarate | > 300 µM
CN1CCN(C(=O)N(CCCCCCC(=O)NO)c2ccc(-c3ccc4cnn(C)c4c3)cc2)CC1 | HDAC10 | enzyme activity, inhibitor, fluorescence |  |  | 0.00114 µM
C[C@@H]1NC(=O)[C@H](CCCNC(=N)N)NC(=O)[C@H](CCCCN)NC(=O)[C@@H](Cc2ccccc2)NC(=O)[C@H](CC(=O)O)NC1=O | Integrin alpha-V/beta-3 | ligand displacement |  |  | > 5 µM
N=C(N)NCCC[C@@H]1NC(=O)[C@H](CCCCNC(=O)CNC(=O)CNC(=O)CNC(=O)CC[C@H](NC(=O)CNC(=O)CNC(=O)CNC(=O)CC[C@H](NC(=O)CN2CCN(CC(=O)O)CCN(CC(=O)O)CCN(CC(=O)O)CC2)C(=O)NCC(=O)NCC(=O)NCC(=O)N[C@@H](CCC(=O)NCC(=O)NCC(=O)NCC(=O)NCCCC[C@@H]2NC(=O)[C@@H](Cc3ccccc3)NC(=O)[C@H](CC(=O)O)NC(=O)CNC(=O)[C@H](CCCNC(=N)N)NC2=O)C(=O)NCC(=O)NCC(=O)NCC(=O)NCCCC[C@@H]2NC(=O)[C@@H](Cc3ccccc3)NC(=O)[C@H](CC(=O)O)NC(=O)CNC(=O)[C@H](CCCNC(=N)N)NC2=O)C(=O)NCC(=O)NCC(=O)NCC(=O)NCCCC[C@@H]2NC(=O)[C@@H](Cc3ccccc3)NC(=O)[C@H](CC(=O)O)NC(=O)CNC(=O)[C@H](CCCNC(=N)N)NC2=O)NC(=O)[C@@H](Cc2ccccc2)NC(=O)[C@H](CC(=O)O)NC(=O)CNC1=O | Integrin alpha-V/beta-3 | ligand displacement, radioligand |  |  | 0.0004 µM
COc1cc2nccc(Oc3ccc(NC(=S)NC4CC4)c(Cl)c3)c2cc1C(=O)NCC(F)(F)F | PDGFRB |  |  |  | 0.316 µM
CC1(C)C2CC3C(c4ccccc4)c4c(O)c(C=O)c(O)c(C=O)c4OC3(C)C1C2 (single isomer, unassigned; (+)) | PFKL (Homo sapiens, UniProt P17858) | enzyme activity, inhibitor, coupled enzyme | HEK293T cell lysate | apparent | 2.8 µM
COc1ccc(-c2cc(C(F)(F)F)nc(S(=O)(=O)NCC(=O)Nc3ccc(C)cc3)n2)cc1 | WRN (Homo sapiens, UniProt Q14191) | DNA unwinding, inhibitor, TAMRA dequenching |  | 10 nM full-length enzyme, 5 µM trap DNA, added: 500 nM DNA substrate, 60 µM ATP | 0.385 µM
COc1c(C[C@@H](C)O)c2c3c(C[C@@H](C)O)c(OC)c(=O)c4c(O)cc(OC)c(c5c(OC)cc(O)c(c1=O)c52)c43 | protein kinase C | enzyme activity, inhibitor |  | whole enzyme | 3.5 µM
O=C1OC(c2ccc(O)cc2)Cc2cccc(OC3OC(CO)C(O)C(O)C3O)c21 (centres unmarked) | MAL12 | enzyme activity, inhibitor, absorbance |  |  | > 100 µM
O=C(/C=C/c1ccc(O)cc1)c1c(O)cc(O)cc1O | CTSL | enzyme activity, inhibitor, fluorescence |  |  | > 100 µM
COc1cc2nccc(Oc3ccc(NC(=S)NC4CC4)c(Cl)c3)c2cc1C#N | KDR |  |  |  | 0.172 µM
C=CC[C@@H]1/C=C(\C)C[C@H](C)C[C@H](OC)[C@H]2O[C@@](O)(C(=O)C(=O)N3CCCC[C@H]3C(=O)O[C@H](/C(C)=C/[C@@H]3CC[C@@H](O)[C@H](OC)C3)[C@H](C)[C@@H](O)CC1=O)[C@H](C)C[C@@H]2OC | Peptidyl-prolyl cis-trans isomerase B (Homo sapiens, UniProt P23284) | ligand displacement, FP |  |  | > 10 µM
COc1cc2nccc(Oc3ccc(NC(=S)NC(C)C)c(Cl)c3)c2cc1C(N)=O | PDGFRB |  |  |  | 0.0785 µM
CN(C1COC1)C(C)(C)/C=C(\C#N)C(=O)N1CCC[C@H]1Cn1nc(-c2ccc(Oc3ccccc3)cc2F)c2c(N)ncnc21 | BTK (Homo sapiens, UniProt Q06187) | probe binding, AlphaScreen | Ramos | added: biotinylated probe | 0.005 to 0.027 µM
NOCC(=O)O | CBS (Homo sapiens, UniProt P35520) | enzyme activity, inhibitor, fluorescence |  |  | ~3 µM
COCC1CN(C2CCN(c3cc(OC)c(Nc4ncc(Br)c(Nc5ccc6c(c5P(C)(C)=O)OCCO6)n4)cc3C)CC2)C1 | EGFR (Homo sapiens, UniProt P00533, del746-750) | enzyme activity, inhibitor, TR-FRET |  |  | < 0.0015 µM
O=c1[nH]c(=S)[nH]c2c1C(c1cc(/N=N/c3ccc(Br)cc3)ccc1O)c1c([nH]c(=S)[nH]c1=O)N2 | PTGS2 (Ovis aries, UniProt P79208) | enzyme activity, inhibitor, ELISA |  |  | 1.02 µM
COc1cc2nccc(Oc3ccc4sc(Nc5ccc(Cl)c(F)c5)nc4c3)c2cc1C(N)=O | PDGFRB |  |  |  | 0.176 µM
COc1ccc(O[C@@H]2O[C@H](COS(=O)(=O)O)[C@H](OS(=O)(=O)O)[C@H](O[C@@H]3O[C@H](C(=O)OCc4ccccc4)[C@@H](O[C@@H]4O[C@H](COS(=O)(=O)O)[C@H](OS(=O)(=O)O)[C@H](O[C@@H]5O[C@H](C(=O)OCc6ccccc6)[C@@H](OS(=O)(=O)O)[C@H](OCc6ccccc6)[C@H]5OC(=O)c5ccccc5)[C@H]4NC(=O)C(F)(F)F)[C@H](OCc4ccccc4)[C@H]3OC(=O)c3ccccc3)[C@H]2NC(=O)C(F)(F)F)cc1 | Midkine (Homo sapiens, UniProt P21741) | heparin hexasaccharide binding, inhibitor, fluorescence polarisation competition |  | added: fluorescein-labelled hexasaccharide probe | 3.8 µM
